Measured values pooled from the literature.
Compare with care: the assays were run in different laboratories. ± marks the error that the study gave.
U2AF2: U2AF2 148-342 (Homo sapiens, UniProt P26368)
Chain of UniProt P26368 (whole entry, looked up): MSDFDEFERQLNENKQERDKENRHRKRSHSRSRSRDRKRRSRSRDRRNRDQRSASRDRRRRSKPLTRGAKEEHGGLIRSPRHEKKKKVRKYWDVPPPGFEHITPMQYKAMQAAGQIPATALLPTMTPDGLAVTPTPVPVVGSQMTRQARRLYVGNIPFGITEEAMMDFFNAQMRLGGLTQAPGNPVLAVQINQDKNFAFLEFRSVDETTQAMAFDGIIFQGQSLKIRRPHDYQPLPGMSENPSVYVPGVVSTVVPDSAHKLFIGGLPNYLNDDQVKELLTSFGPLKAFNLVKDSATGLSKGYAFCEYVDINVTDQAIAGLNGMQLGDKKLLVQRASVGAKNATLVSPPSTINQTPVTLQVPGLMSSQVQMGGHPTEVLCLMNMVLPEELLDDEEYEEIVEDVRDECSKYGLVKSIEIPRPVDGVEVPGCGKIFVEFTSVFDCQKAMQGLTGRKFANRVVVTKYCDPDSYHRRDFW
APOBEC3A full length assumed E72A: APOBEC3A full length assumed E72A (Homo sapiens, UniProt P31941)
TGM2: TGM2 2-687 (Homo sapiens, UniProt P21980)
Chain of UniProt P21980 (whole entry, looked up): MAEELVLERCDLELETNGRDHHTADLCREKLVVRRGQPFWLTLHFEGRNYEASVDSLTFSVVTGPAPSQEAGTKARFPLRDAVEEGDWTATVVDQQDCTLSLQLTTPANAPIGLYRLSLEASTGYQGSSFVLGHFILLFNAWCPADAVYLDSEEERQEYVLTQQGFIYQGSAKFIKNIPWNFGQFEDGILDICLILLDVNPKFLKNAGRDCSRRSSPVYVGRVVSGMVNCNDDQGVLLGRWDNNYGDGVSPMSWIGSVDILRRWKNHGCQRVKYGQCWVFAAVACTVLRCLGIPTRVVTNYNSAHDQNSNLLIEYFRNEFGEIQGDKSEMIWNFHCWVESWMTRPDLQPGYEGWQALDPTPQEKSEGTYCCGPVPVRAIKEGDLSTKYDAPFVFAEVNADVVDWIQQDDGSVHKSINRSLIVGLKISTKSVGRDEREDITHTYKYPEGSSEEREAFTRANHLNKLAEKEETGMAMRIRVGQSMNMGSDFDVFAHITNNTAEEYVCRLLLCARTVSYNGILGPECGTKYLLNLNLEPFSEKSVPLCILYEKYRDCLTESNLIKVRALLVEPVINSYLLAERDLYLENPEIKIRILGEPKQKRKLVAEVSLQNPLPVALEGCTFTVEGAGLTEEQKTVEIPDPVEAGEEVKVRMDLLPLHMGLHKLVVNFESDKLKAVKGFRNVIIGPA
SPT15 full length assumed: SPT15 full length assumed (Saccharomyces cerevisiae, UniProt P13393)
Chain of UniProt P13393 (whole entry, looked up): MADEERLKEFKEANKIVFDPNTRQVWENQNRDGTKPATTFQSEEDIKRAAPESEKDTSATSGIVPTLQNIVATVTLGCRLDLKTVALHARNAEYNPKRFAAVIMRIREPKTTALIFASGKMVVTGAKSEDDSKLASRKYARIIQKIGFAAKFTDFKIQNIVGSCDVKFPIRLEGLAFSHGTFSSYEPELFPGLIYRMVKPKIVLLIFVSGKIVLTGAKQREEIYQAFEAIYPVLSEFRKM
PHO4: PHO4 1-312 (Saccharomyces cerevisiae, UniProt P07270)
Chain of UniProt P07270 (whole entry, looked up): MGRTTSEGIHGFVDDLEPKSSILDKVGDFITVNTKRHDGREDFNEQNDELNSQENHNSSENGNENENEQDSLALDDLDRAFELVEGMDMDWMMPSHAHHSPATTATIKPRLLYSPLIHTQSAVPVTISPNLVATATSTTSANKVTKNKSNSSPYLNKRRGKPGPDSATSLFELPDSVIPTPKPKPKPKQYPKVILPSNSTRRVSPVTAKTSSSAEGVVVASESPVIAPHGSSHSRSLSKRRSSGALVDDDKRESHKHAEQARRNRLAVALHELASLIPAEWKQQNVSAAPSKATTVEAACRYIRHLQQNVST
CBF1: CBF1 1-351 (Saccharomyces cerevisiae, UniProt P17106)
Chain of UniProt P17106 (whole entry, looked up): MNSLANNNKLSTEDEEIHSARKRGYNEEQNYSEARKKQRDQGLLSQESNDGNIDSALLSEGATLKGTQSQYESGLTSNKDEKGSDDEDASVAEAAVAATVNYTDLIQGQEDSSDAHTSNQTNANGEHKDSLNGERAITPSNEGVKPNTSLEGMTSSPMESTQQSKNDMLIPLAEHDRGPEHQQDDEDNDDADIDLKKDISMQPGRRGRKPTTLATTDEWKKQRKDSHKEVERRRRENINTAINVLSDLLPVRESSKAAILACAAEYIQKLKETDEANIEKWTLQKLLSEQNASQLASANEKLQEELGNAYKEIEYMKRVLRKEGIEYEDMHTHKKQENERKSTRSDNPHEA
T1: TOA1/TOA2 1-286; 1-122 (Saccharomyces cerevisiae); chain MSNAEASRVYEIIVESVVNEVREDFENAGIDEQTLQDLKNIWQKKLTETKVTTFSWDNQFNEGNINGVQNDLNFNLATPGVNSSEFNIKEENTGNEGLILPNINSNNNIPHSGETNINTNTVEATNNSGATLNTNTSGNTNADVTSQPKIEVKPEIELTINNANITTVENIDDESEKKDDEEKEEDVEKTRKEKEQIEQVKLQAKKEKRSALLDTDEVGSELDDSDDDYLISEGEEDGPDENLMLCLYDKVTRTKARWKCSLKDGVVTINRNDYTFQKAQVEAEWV; chain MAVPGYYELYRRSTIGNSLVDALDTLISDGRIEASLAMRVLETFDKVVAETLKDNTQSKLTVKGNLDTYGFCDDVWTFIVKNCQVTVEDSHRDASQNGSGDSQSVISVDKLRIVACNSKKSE
B1: gamma-glutamylcyclotransferase (human); sequence looked up; chain MANSGCKDVTGPDEESFLYFAYGSNLLTERIHLRNPSAAFFCVARLQDFKLDFGNSQGKTSQTWHGGIATIFQSPGDEVWGVVWKMNKSNLNSLDEQEGVKSGMYVVIEVKVATQEGKEITCRSYLMTNYESAPPSPQYKKIICMGAKENGLPLEYQEKLKAIEPNDYTGKVSEEIEDIIKKGETQTL
B2: purine nucleoside phosphorylase (human); sequence looked up; chain MENGYTYEDYKNTAEWLLSHTKHRPQVAIICGSGLGGLTDKLTQAQIFDYGEIPNFPRSTVPGHAGRLVFGFLNGRACVMMQGRFHMYEGYPLWKVTFPVRVFHLLGVDTLVVTNAAGGLNPKFEVGDIMLIRDHINLPGFSGQNPLRGPNDERFGDRFPAMSDAYDRTMRQRALSTWKQMGEQRELQEGTYVMVAGPSFETVAECRVLQKLGADAVGMSTVPEVIVARHCGLRVFGFSLITNKVIMDYESLEKANHEEVLAAGKQAAQKLEQFVSILMASIPLPDKAS
Chain of UniProt P29055 (whole entry, looked up): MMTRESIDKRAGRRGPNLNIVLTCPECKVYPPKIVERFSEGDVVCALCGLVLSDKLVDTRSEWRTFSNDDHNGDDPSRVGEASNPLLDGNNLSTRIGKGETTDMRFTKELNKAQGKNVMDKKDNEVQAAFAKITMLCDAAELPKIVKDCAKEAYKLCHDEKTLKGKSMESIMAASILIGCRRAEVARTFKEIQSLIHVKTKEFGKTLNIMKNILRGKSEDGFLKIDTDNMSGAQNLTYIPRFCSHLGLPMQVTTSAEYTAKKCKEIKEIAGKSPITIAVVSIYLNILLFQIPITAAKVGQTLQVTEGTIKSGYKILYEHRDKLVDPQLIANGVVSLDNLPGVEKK

`UGUUAUUUU (ssRNA)` has a Kd of 3230 nM (U2AF2; sequencing of bound RNA; RNA; motif only).
`B1 (gamma-glutamylcyclotransferase)`: “log2 fold change” 0.23 (PP6C (human); co-immunoprecipitation, IP-MS; CYB5R4 knockout cells; concentration not given; reference: CYB5R4 knockout over parental).
For `ATTATGUCGTTGGATTTA (ssDNA; single-stranded, dU at 7)`, the IC50 was 500 ± 40 nM (APOBEC3A full length assumed E72A; competitive fluorescence polarization; single-stranded DNA).
`GGGAGCAGGAGAGAGGUCAGAUGAGGGGGCAAAUUGGAAACCCGGGGUUCUAACCUAUGCGUGCUAGUGUGA (ssRNA; 2'-fluoro pyrimidines)` has a relative binding of 44.6 RU (TGM2; SPR; RNA; with: MgCl2 5 mM; higher = more binding).
`AAUUUUAAU (ssRNA)` has a Kd of 12400 nM (U2AF2; sequencing of bound RNA; RNA; motif only).
Under “log2 fold change”, `B2` is recorded as 0.11 (CYB5R4 knockout human cells; PP6 interaction, 3xFLAG-PP6C IP-MS; concentration not given; reference: CYB5R4 KO over parental).
`CTGCTCCGTCCGCCTTCGAGGAGAGGTCGGCATCTTCAAGTCAATCGGTCC (dsDNA; 5'-amino-C6 primer)` has a Kd of 13.8 ± 0.97 nM (SPT15 full length assumed; array; double-stranded DNA, one strand shown; TBP alone).
For `ATTATGTCGTTGGATTTATTT (ssDNA; single-stranded)`, the IC50 was 430 ± 30 nM (APOBEC3A full length assumed E72A; competitive fluorescence polarization; single-stranded DNA).
For `CCACUCUUU (ssRNA)`, the Kd was 690 nM (U2AF2; sequencing of bound RNA; RNA; motif only).
`GGGAGCAGGAGAGAGGUCAGAUGAUUAGAAAAUUACAAGAGAUGUGAUCGCUGACCUAUGCGUGCUAGUGUGA (ssRNA; 2'-fluoro pyrimidines)` has a relative binding of 46.8 RU (TGM2; SPR; RNA; with: MgCl2 5 mM; higher = more binding).
For `CAATACACTGTTATCAGACACACGTGTCGATCTACTCGTTCGGTTATCCGGCGGTATGAC (dsDNA)`, the Kd was 139 ± 4 nM (PHO4; MITOMI; double-stranded DNA, one strand shown; not purified).
`GGAACGAUACAGAGAAGAUUAG (ssRNA)` — result for “fold affinity decrease”: 2.2 fold (SART3 671-877 K841A (Homo sapiens, UniProt Q15020); fluorescence polarization; RNA; reference: RRM1-2, higher = weaker binding).
With `GGGAGCAGGAGAGAGGUCAGAUGUUAGGAGUUACGAGAGAUGUGGCAUGUGACCUAUGCGUGCUAGUGUGA (ssRNA; 2'-fluoro pyrimidines)` the relative binding was 210 RU (TGM2; SPR; RNA; with: MgCl2 5 mM; higher = more binding).
`CAATACACTGTTATCAGACACACGTGTCGAGCTACTCGTTCGGTTATCCGGCGGTATGAC (dsDNA)` gave a Kd of 151 ± 3 nM (PHO4; MITOMI; double-stranded DNA, one strand shown; not purified).
`GGAAGTGACGTACGTCGTGCACACGTGGTCCGGCGTCAAGTCAATCGGTCC (dsDNA; 5'-amino-C6 primer)` gave a Kd of 6.89 ± 0.46 nM (SPT15 full length assumed; array; double-stranded DNA, one strand shown; TBP alone).
For `GGGAGCAGGAGAGAGGUCAGAUGACACACGAGAGAUGUUGCCUGCUACCCACACCUAUGCGUGCUAGUGUGA (ssRNA; 2'-fluoro pyrimidines)`, the relative binding was 106 RU (TGM2; SPR; RNA; with: MgCl2 5 mM; higher = more binding).
`CAATACACTGTTATCAGACACACGTGTCAAGCTACTCGTTCGGTTATCCGGCGGTATGAC (dsDNA)` gave a Kd of 145 ± 7 nM (CBF1; MITOMI; double-stranded DNA, one strand shown; not purified).
For `GGGAGCAGGAGAGAGGUCAGAUGAACAAGAGAUGGUAGGCCUACGUAAUGUUUCCUAUGCGUGCUAGUGUGA (ssRNA; 2'-fluoro pyrimidines)`, the relative binding was 128 RU (TGM2; SPR; RNA; with: MgCl2 5 mM; higher = more binding).
`ATTCCAGTATGGCGTATAAATAAAGGCGAGGAGAATCAAGTCAATCGGTCC (dsDNA; 5'-amino-C6 primer)` has a Kd of 5.05 ± 0.31 nM (SPT15 full length assumed; array; double-stranded DNA, one strand shown; TBP alone).
`GGGAGCAGGAGAGAGGUCAGAUGAACAAUGUAAAAUUGUGCAAGCCUAUCUUCCUAUGCGUGCUAGUGUGA (ssRNA; 2'-fluoro pyrimidines)` gave a relative binding of -24.1 RU (TGM2; SPR; RNA; with: MgCl2 5 mM; higher = more binding).
For `GUUUUUUUC (ssRNA)`, the Kd was 1090 nM (U2AF2; sequencing of bound RNA; RNA; motif only).
`CAATACACTGTTATCAGATACACGTGTCGAGCTACTCGTTCGGTTATCCGGCGGTATGAC (dsDNA)` has a Kd of 185 ± 9 nM (CBF1; MITOMI; double-stranded DNA, one strand shown; not purified).
With `ATTATGTCGTTGGATTTA (ssDNA; single-stranded)` the IC50 was 400 ± 40 nM (APOBEC3A full length assumed E72A; competitive fluorescence polarization; single-stranded DNA).
With `CUUUAUUUC (ssRNA)` the Kd was 3780 nM (U2AF2; sequencing of bound RNA; RNA; motif only).
With `DNA 1 CTAATATACACGGATACAAAAGAAATACACATAATTCAATTCAATCGGTCC / DNA 2 GGACCGATTGACTTGAATTATGTGTATTTCTTTTGTATCCGTGTATATTAG (dsDNA; blunt; C:T mismatch; 5'-amino-C6 primer)` the Kd was 21 ± 2 nM (SPT15 full length assumed; array; double-stranded DNA; TBP alone).
`CAATACACTGTTATCAGACACACGTGTCGCGCTACTCGTTCGGTTATCCGGCGGTATGAC (dsDNA)` gave a Kd of 184 ± 10 nM (CBF1; MITOMI; double-stranded DNA, one strand shown; not purified).
`GGGAGCAGGAGAGAGGUCAGAUGAACGAGAGAUGGUAGGCCUCGCCUUCUAAACCUAUGCGUGCUAGUGUGA (ssRNA; 2'-fluoro pyrimidines)` has a relative binding of 211 RU (TGM2; SPR; RNA; with: MgCl2 5 mM; higher = more binding).
With `TTGTGCTACGGTCTCTCCACCCCCTGCTGCTGCTGTCAAGTCAATCGGTCC (dsDNA; blunt; 5'-amino-C6 primer)` the Kd was 1.6 ± 0.5 nM (SPT15 full length assumed; EMSA; double-stranded DNA, one strand shown).
The Kd of `AGUUUUAAG (ssRNA)` is reported as 3360 nM (U2AF2; sequencing of bound RNA; RNA; motif only).
`ATTTTTTAGTCCTATATATACTCGCTCTGCACTTGTCAAGTCAATCGGTCC (dsDNA; 5'-amino-C6 primer)` gave a Kd of 6.5 ± 1.76 nM (SUA7 full length assumed (Saccharomyces cerevisiae, UniProt P29055); array; double-stranded DNA, one strand shown; TFIIB alone).
`CAUUUGUAC (ssRNA)` has a Kd of 7600 nM (U2AF2; sequencing of bound RNA; RNA; motif only).
`GAAAAACATCTAACATAAATATATAAACGCAAACATCAAGTCAATCGGTCC (dsDNA; 5'-amino-C6 primer)` has a Kd of 40.8 ± 6.47 nM (SPT15 full length assumed; array; double-stranded DNA, one strand shown; TBP alone).
`UUACACGAA (ssRNA)` gave a Kd of 650 nM (U2AF2; sequencing of bound RNA; RNA; motif only).
For `TCCTGAAGGGGAGCCCTAGCTTGGTCCTATCGTCGTCAAGTCAATCGGTCC (dsDNA; 5'-amino-C6 primer)`, the Kd was 32.7 ± 7.14 nM (T1, TOA1/TOA2 1-286; 1-122 (Saccharomyces cerevisiae); array; double-stranded DNA, one strand shown; TFIIA alone).
For `GGGAGCAGGAGAGAGGUCAGAUGAACAAGAGAUGGUAGGCCUAACCAUGCUUUCCUAUGCGUGCUAGUGUGA (ssRNA; 2'-fluoro pyrimidines)`, the relative binding was 82.2 RU (TGM2; SPR; RNA; with: MgCl2 5 mM; higher = more binding).
